{"data": "Experimental data from different studies", "note": "Several values in a cell are separate wells, animals, samples, runs or records. Numbers after ± are the reported error.", "UniProt P07947, sequence (whole entry, looked up)": "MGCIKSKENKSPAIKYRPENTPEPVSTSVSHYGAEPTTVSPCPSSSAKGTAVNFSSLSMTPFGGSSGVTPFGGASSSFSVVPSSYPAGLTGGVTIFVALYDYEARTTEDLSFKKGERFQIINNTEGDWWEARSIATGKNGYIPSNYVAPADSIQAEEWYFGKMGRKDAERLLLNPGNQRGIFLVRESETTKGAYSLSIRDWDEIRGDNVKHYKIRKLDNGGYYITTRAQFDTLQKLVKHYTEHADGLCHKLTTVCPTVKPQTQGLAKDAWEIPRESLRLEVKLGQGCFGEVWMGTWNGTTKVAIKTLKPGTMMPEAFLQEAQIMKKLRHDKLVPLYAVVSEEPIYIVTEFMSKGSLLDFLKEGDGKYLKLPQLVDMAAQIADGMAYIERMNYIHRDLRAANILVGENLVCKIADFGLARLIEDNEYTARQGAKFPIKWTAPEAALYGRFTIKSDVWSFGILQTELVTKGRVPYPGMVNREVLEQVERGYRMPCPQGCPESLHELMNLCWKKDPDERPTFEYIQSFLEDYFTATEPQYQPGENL"}
{"Compound": "COc1cc(O)ccc1CCC(c1ccc(O)cc1)c1cc2c(c(C)c1O)OC(c1ccc(O)cc1)CC2 (mixture of isomers)", "system": "human blood", "conditions": "30 µM, added: A23187", "endpoint": "LTB4 level", "value": "13 ± 13 pg/mL"}
{"Compound": "O=[N+]([O-])[O-].O=c1c(C=NN=C([S-])Nc2ccccc2)coc2ccccc12.[Cu+2].c1ccc(-c2ccccn2)nc1", "assay": "oxidative DNA cleavage", "system": "supercoiled pUC19 DNA", "conditions": "100 µM, 30 min, added: ascorbic acid 50 µM, DNA 40 µM", "endpoint": "supercoiled DNA form", "value": "80%"}
{"Compound": "C[n+]1ccc(/C=N/NC(=O)c2cncc(C(=O)N/N=C/c3cc[n+](C)c4ccccc34)n2)c2ccccc21", "target or system": "telomeric G4 DNA hybrid-2", "assay": "FRET melting", "conditions": "1 µM, DNA 0.2 µM", "endpoint": "ΔTm", "value": "23.9 ± 0.2 °C"}
{"Compound": "COc1ccc(C(=O)CCc2cc(C(CCc3ccc(O)cc3OC)c3ccc(O)cc3)c(O)cc2OC)cc1 (racemic)", "system": "human blood", "conditions": "3 µM, added: A23187", "endpoint": "LTB4 isomers level", "value": "546 ± 164 pg/mL"}
{"Compound": "CNS(=O)(=O)Nc1nccc(Cc2c(C)c3ccc(Oc4ncccc4F)cc3oc2=O)c1F", "target or system": "KCL-22", "assay": "cell viability", "conditions": "7 days", "endpoint": "IC50", "value": "3.1 nM"}
{"Compound": "O=[N][Fe]1([N]=O)[S](CCO)[Fe]([N]=O)([N]=O)[S]1CCO", "system": "aged C57BL/6JNarl mice, Western diet, serum", "conditions": "oral, 2.65 mg/kg daily, 16 weeks", "endpoint": "serum triglycerides", "value": "73 ± 13.5 mg/dL"}
{"Compound": "CC(C)[C@H](NC(=O)[C@H](CC(=O)O)NC(=O)[C@@H](NC(=O)[C@H](Cc1c[nH]c2ccccc12)NC(=O)[C@H](CCC(=O)O)NC(=O)[C@H](C)NC(=O)[C@H](CC(=O)O)NC(=O)CNC(=O)[C@H](Cc1ccc(O)cc1)NC(=O)[C@H](Cc1ccc(OP(=O)(O)O)cc1)NC(=O)[C@H](Cc1ccc(O)cc1)NC(=O)CCNC(=O)c1ccc(C(=O)[O-])c(-c2c3ccc(=[N+](C)C)cc-3oc3cc(N(C)C)ccc23)c1)C(C)C)C(=O)N[C@@H](CO)C(=O)O", "assay": "immunohistochemistry", "system": "ApoE-/- mice, aortic sinus sections", "conditions": "dose not given, 21 days", "endpoint": "MMP-9 positive area", "value": "19.9 ± 6.18%"}
{"Compound": "Fc1cccc(-n2cc(-c3ccccc3)nc2NCc2ccc(C(F)(F)F)c(Br)c2)c1", "assay": "DPPH radical scavenging", "system": "methanol", "conditions": "first order kinetics", "endpoint": "rate constant", "value": "0.301 ± 0.0409 s⁻¹"}
{"Compound": "O=C(NS(=O)(=O)c1cccs1)c1cc2ccccc2n1Cc1ccc(Br)c2ccccc12", "system": "mouse, acute hyperuricaemia model", "conditions": "1 mg/kg", "endpoint": "decrease in serum uric acid", "value": "90.6%"}
{"Compound": "CC(=O)[O-].O.[Cu+2].[O-]c1ccc(Br)cc1C=NCCN1CCOCC1", "assay": "FRAP", "conditions": "160 µM", "endpoint": "ferric reducing power", "value": "43%"}
{"Compound": "Nc1ncc(-c2cc(-c3cnn(CC(F)(F)F)c3)ncc2F)nc1C(=O)NC1CNCC(F)C1 (stereo not drawn)", "target or system": "CDK9", "assay": "KINOMEscan", "conditions": "1 µM", "scale": "relative to: DMSO control", "endpoint": "remaining binding", "value": "100%"}
{"Compound": "CN1CCC[C@]1(C)/C=C/S(=O)(=O)NC(=O)Nc1c2c(cc3c1CCC3)CCC2", "system": "human, whole blood ex vivo", "conditions": "250 mg single dose, 12 h, single ascending dose, added: LPS and ATP", "endpoint": "IL-18 inhibition", "value": "105%"}
{"Compound": "CCCCCCCCCCCCCCCC(=O)OCC(CSC[C@H](N)C(=O)N[C@@H](CO)C(=O)N[C@@H](CCCCN)C(=O)N[C@@H](CCCCN)C(=O)N[C@@H](CCCCN)C(=O)N[C@@H](CCCCN)C(=O)NCCCCCC(=O)N[C@@H](CCCCN)C(=O)N[C@@H](CC(C)C)C(=O)N[C@H](C(=O)N[C@@H](Cc1ccccc1)C(=O)N[C@@H](Cc1ccccc1)C(=O)N[C@@H](Cc1ccc2ccccc2c1)C(=O)O)C(C)C)OC(=O)CCCCCCCCCCCCCCC (stereo partly drawn)", "system": "APP/PS1 transgenic mouse, hippocampus", "conditions": "intrahippocampal, dose not given, 10 d, unit not given", "scale": "relative to: injected over adjacent side", "endpoint": "Iba1 level", "value": "1.2 and 0.525 and 0.875 and 1.47 and 1.21"}
{"Compound": "COc1ccc(NC(=O)c2ccc3[nH]c(-c4ccc(N(C)C)cc4)nc3c2)cn1", "system": "CT26, BALB/c nude mice, subcutaneous graft", "conditions": "dose not given, day 2", "endpoint": "tumour volume", "value": "69.3 mm3 and 229 mm3 and 104 mm3 and 239 mm3 and 60 mm3"}
{"Compound": "COCCOCCOCCNC(=O)Cc1cc(CC(=O)N[C@H]2C[C@H]3C(=O)Nc4cc(OCCOCCOCCOC)cc(n4)C(=O)N4CCC[C@H]4C(=O)Nc4cc(OCCOCCOCCOC)cc(n4)C(=O)N4CCC[C@H]4C(=O)Nc4cc(OCCOCCOCCOC)cc(n4)C(=O)N3C2)cc(CC(=O)N[C@H]2C[C@H]3C(=O)Nc4cc(OCCOCCOCCOC)cc(n4)C(=O)N4CCC[C@H]4C(=O)Nc4cc(OCCOCCOCCOC)cc(n4)C(=O)N4CCC[C@H]4C(=O)Nc4cc(OCCOCCOCCOC)cc(n4)C(=O)N3C2)c1", "assay": "anion binding, ITC", "system": "water", "conditions": "298 K, added: sodium iodide", "endpoint": "ΔH", "value": "-3.2 ± 0.4 kJ/mol"}
{"Compound": "C=CC(=O)Nc1cccc(Cn2ncc3cnc(Nc4cnn(CCOC)c4)nc32)c1", "target or system": "ERBB2 human", "assay": "binding, KINOMEscan", "conditions": "100 nM", "scale": "lower = stronger binding", "endpoint": "percent of control", "value": "88%"}
{"Compound": "Cc1nn(-c2cccc(N)c2)c(=O)c2cnc(Nc3ccc(N4CCNCC4)cc3)nc12", "target or system": "Tyrosine-protein kinase Yes (YES1, Homo sapiens, UniProt P07947)", "assay": "kinase activity, inhibitor, SelectScreen kinase profiling", "endpoint": "IC50", "value": "468 nM"}
{"Compound": "COc1c(Cl)cccc1Nc1c(-c2ccncc2C#C[C@@]2(C)CCCN2C(=O)/C=C/CN(C)C)[nH]c2c1C(=O)NCC2", "system": "NCI-H2073 EGFR SVD knock-in xenograft, BALB/c nude mice", "conditions": "oral, 50 mg/kg once daily, 21 days, regression if TGI above 100 %", "endpoint": "tumour regression", "value": "35.8%"}
{"Compound": "O=S(=O)(NCc1ccncc1)c1ccc(C2CCCCC2)cc1", "assay": "immunohistochemistry", "system": "CK-p25 mice male, hippocampal dentate gyrus", "conditions": "ip, 0.1 mg/kg daily, 2 wk", "scale": "relative to: vehicle", "endpoint": "PU.1+ nuclei reduction", "value": "~47%"}
{"Compound": "Cc1ncsc1-c1ccc(C(C)NC(=O)C2CC(O)CN2C(=O)C(NC(=O)CCCCCCCCCCN2CCCC(Nc3ncc(Cl)c(Nc4ccccc4S(=O)(=O)C(C)C)n3)C2)C(C)(C)C)cc1 (stereo not drawn)", "target or system": "22Rv1", "assay": "RNA-seq, item: RIPK1 mRNA", "conditions": "concentration not given", "scale": "relative to: DMSO", "endpoint": "log2 fold change", "value": -1.01}
{"Compound": "COC(=O)C1CN1S(=O)(=O)c1ccc2cc(C)ccc2c1 (stereo not drawn)", "system": "mouse, Lewis lung carcinoma", "conditions": "ip, 100 mg/kg, 264 h", "endpoint": "tumour growth inhibition", "value": "48%"}
{"Compound": "CN1CCCNC(=O)c2cccc(c2)C(=O)NCCCN(C)CCCNc2cccc3c2C(=O)c2cccc(c2C3=O)NCCC1", "target or system": "SAS", "assay": "RNA-seq, item: MT-TW mRNA", "conditions": "1 µM, 6 h", "scale": "relative to: untreated cells", "endpoint": "log2 fold change", "value": 1.69}
{"Compound": "COCC1CN(C2CCN(c3cc(OC)c(Nc4ncc(Br)c(Nc5ccc6c(c5P(C)(C)=O)OCCO6)n4)cc3C)CC2)C1", "assay": "RECIST 1.1", "system": "advanced EGFR-mutant NSCLC patients", "conditions": "60 mg once daily", "endpoint": "partial response", "value": "0%"}
{"Compound": "Cl.[2H]C([2H])([2H])CC(=O)c1cnc(NC(=O)C2CC2)cc1Nc1cccc(-c2ncn(C([2H])([2H])[2H])n2)c1OC", "assay": "IFNα-induced STAT phosphorylation", "system": "human whole blood", "endpoint": "IC90", "value": "0.144 µg/mL"}
{"Compound": "O=C(Nc1cnccc1-c1ccc([18F])nc1)c1ccnc(NC(=O)C2CC2)c1", "assay": "ex vivo gamma counting", "system": "GSK-3β transgenic mice, early-stage, urine", "conditions": "intravenous, 120 min, mean, P-gp inhibitor pretreatment, added: tariquidar 15 mg/kg iv", "endpoint": "SUV", "value": 10.1}
{"Compound": "COC1CN([C@H]2CC[C@H]([C@@]3(C)Oc4c(Cl)cc(C(=O)NCc5c(SC)cc(C)[nH]c5=O)c(C)c4O3)CC2)C1", "assay": "RNA-seq, item: LAMA5 mouse homolog", "system": "mouse, HT-1376 xenograft, whole blood", "conditions": "dose not given", "scale": "relative to: vehicle", "endpoint": "log2 fold change", "value": 0.423}
{"Compound": "NC[C@@H](C(=O)Nc1ccc(-c2cn[nH]c2)cc1)c1ccccc1", "assay": "tonometry", "system": "Macaca cyclopis, ocular normotensive", "conditions": "ocular, 0.03%, 48 h", "endpoint": "IOP", "value": "19.1 mmHg"}
{"Compound": "CC(C)OC(=O)[C@H](CO)NCc1cc(Cl)c(OCc2cccc(-c3ccccc3)c2Br)cc1OCc1cccnc1", "system": "hPD-L1 MC-38 tumour, humanised hPD-1 C57BL/6 mouse", "conditions": "oral, 10 mg/kg × 21, day 1, baseline", "endpoint": "tumour volume", "value": "128 ± 11.1 mm³"}
{"Compound": "C[n+]1cc(/C=N/NC(=O)c2cccc(C(=O)N/N=C/c3cc4ccccc4[n+](C)c3)n2)cc2ccccc21", "target or system": "telomeric G4 DNA hybrid-2", "assay": "FRET melting", "conditions": "1 µM, DNA 0.2 µM", "endpoint": "ΔTm", "value": "21 ± 0.9 °C"}
{"Compound": "CC(CCC(=O)NCc1ccc(C(=O)NO)cc1)C1CCC2C3C(O)CC4CC(O)CCC4(C)C3CCC12C (stereo not drawn)", "assay": "item: UDCA", "system": "PCK rat (Pkhd1 mutant), liver", "conditions": "oral gavage, dose not given, 5 months", "scale": "relative to: total bile acids", "endpoint": "relative abundance", "value": "0.21%"}
